Experimental data from different studies.
Numbers after ± are the reported error.

With O=C(/C=C/C=C/C=C/C1CCCCC1)NC1=C[C@@](O)(/C=C/C=C/C=C/C(=O)NC2=C(O)CCC2=O)[C@@H]2O[C@@H]2C1=O the GI50 was 11.7 µM (PC-14; cell growth, CellTiter-Glo; 78 h).
With CNC(=O)c1ccccc1Sc1ccc2c(N)n[nH]c2c1 the GI50 was 0.39 µM (Ba/F3 TEL-VEGFR2; cell growth, CCK-8).
Cn1cncc1C1=CN(c2ncnc3[nH]cnc23)CCS1 gave a GI50 of 24 µM (SF-268; CNS cancer).
Nc1n[nH]c2cc(I)ccc12 gave a GI50 of 0.25 µM (Ba/F3 TEL-VEGFR2; cell growth, CCK-8).
C[C@]12CC[C@H](O)CC1=CC[C@@H]1[C@@H]2CC[C@]2(C)C(n3cnc4ccccc43)=CC[C@@H]12 gave a GI50 of 2.2 ± 0.14 µM (C4-2B; cell growth, MTT).
With [Cl-].[Cl-].[Os+2].c1cnc2c(c1)ccc1cccnc12.c1cnc2c(c1)ccc1cccnc12.c1cnc2c(c1)ccc1cccnc12 the GI50 was 87.5 µM (SK-MEL-28; cell growth, SRB; red light 633 nm, 1% O2 hypoxia).
For CNC(=O)c1ccc(N2C(=S)N(c3ccc(C#N)c(C(F)(F)F)c3)C(=O)C2(C)C)cc1F, the GI50 was 15.6 ± 0.27 µM (C4-2B; cell growth, MTT).
The GI50 of Cc1c(C(=O)O)ccc2c3n(nc12)[C@@H]1[C@H](C3)N(CC2CC2)[C@@]2(C(=O)Nc3cc(Cl)ccc32)[C@H]1c1cccc(Cl)c1F is reported as 0.007 µM (NUGC-4 (MDM2 non-amplified); cell growth, alamarBlue; 120 h).

Repeated from above:
For CNC(=O)c1ccc(N2C(=S)N(c3ccc(C#N)c(C(F)(F)F)c3)C(=O)C2(C)C)cc1F, the GI50 was 15.6 ± 0.27 µM (C4-2B; cell growth, MTT).
